Assay results of several laboratories.
Compare with care: the assays were run in different laboratories. Numbers after ± are the reported error. Converted amounts (≈) assume the structure as drawn.

[O-][N+]1=C(Cc2ccccc2)C2=NCCCN2c2ccccc21 has an MIC of 1 µg/mL (≈ 3.43 µM) (Bacteroides fragilis; microbial growth; ATCC25285).
For COc1ccc(-c2ccc3oc(-c4ccc(OC)cc4)c(C#CC4(O)CCCCC4)c3c2)cc1, the remaining activity was 109% (hepatitis C virus; HCV replicon replication; HCV genotype 1b subgenomic replicon cells; 10 µM; relative to: DMSO).
CCCN1CCNC1=[S+][Ag-3]([O][N+](=O)[O-])([P+](c1ccccc1)(c1ccccc1)c1ccccc1)[P+](c1ccccc1)(c1ccccc1)c1ccccc1 — result for “inhibition zone diameter”: 13 mm (Shigella flexneri; MTCC 1457, DMSO; 0.1 mL of 50 mg/mL in 8 mm well, 18 to 24 h).
C[C@H]1[C@H](C)CC[C@]2(CO)CC[C@]3(C)C(=CC[C@@H]4[C@@]5(C)CCCNC(C)(C)[C@@H]5CC[C@]43C)[C@H]12 gave a selectivity index of less than 3 (Human papillomavirus 11; viral replication; C-33 A; relative to: CC50 over EC50).
CN1CC(=O)N=C1N.C[C@H](CCC(=O)O)[C@H]1CC[C@H]2[C@@H]3[C@H](O)C[C@@H]4C[C@H](O)CC[C@]4(C)[C@H]3CC[C@]12C: “inhibition zone diameter” 8.2 ± 0.9 mm (Enterococcus faecalis; TISTR 927; 1 mg per disc, 18 to 24 h, 37 °C, 6 mm disc).
CC(=O)[O-].CN(C)C=O.F[P-](F)(F)(F)(F)F.[Co+2].c1ccc(CN2CCN3CCCN(CC2)CCN(Cc2ccccc2)CC3)cc1 gave an IC90 of greater than 10 µM (Leishmania donovani; parasite growth, resazurin; 72 h, amastigote).
CC[C@H](C)[C@H](NC(=O)[C@H](C)NC(=O)[C@@H](NC(=O)[C@H](CC(=O)O)NC(=O)[C@H](CCCCN)NC(=O)[C@H](CO)NC(=O)[C@@H](NC(=O)[C@H](CC(N)=O)NC(=O)[C@H](C)NC(=O)[C@@H](NC(=O)[C@H](CCC(=O)O)NC(=O)[C@H](CCCCN)NC(=O)[C@@H](NC(=O)[C@@H](NC(=O)[C@H](Cc1c[nH]cn1)NC(=O)[C@H](CCCCN)NC(=O)[C@@H](NC(=O)[C@H](CCCCN)NC(=O)[C@H](CCCCN)NC(=O)[C@@H](NC(=O)[C@H](CC(C)C)NC(=O)[C@H](CCCCN)NC(=O)[C@H](CC(N)=O)NC(=O)[C@H](Cc1ccccc1)NC(=O)[C@H](CCCNC(=N)N)NC(=O)[C@H](CCCCN)NC(=O)[C@H](CCCNC(=N)N)NC(=O)[C@H](Cc1ccccc1)NC(=O)CN)C(C)C)C(C)C)[C@@H](C)O)[C@@H](C)CC)[C@@H](C)O)C(C)C)C(C)C)C(=O)N[C@H](C(=O)N[C@@H](C)C(=O)NCC(=O)N[C@@H](CO)C(=O)NCC(=O)N[C@H](C(=O)N[C@@H](C)C(=O)N[C@H](C(=O)NCC(=O)N[C@@H](C)C(=O)N[C@@H](C)C(=O)N[C@@H](CCSC)C(N)=O)C(C)C)C(C)C)C(C)C gave an MIC90 of 8 mg/L (≈ 1.85 µM) (Gram-negative bacteria except Klebsiella pneumoniae; MDR clinical isolates).
[Cl-].[Cl-].[Mn+2].c1ccc(CN2CCCNCCN(Cc3ccccc3)CCCNCC2)cc1 has an IC90 of 12.4 µM (Leishmania donovani; parasite growth, resazurin; 72 h, promastigote).
For CC[C@H](C)[C@H](NC(=O)[C@H](CCCCN)NC(=O)[C@H](CCCCN)NC(=O)[C@H](CC(C)C)NC(=O)[C@H](CCCCN)NC(=O)[C@H](CCC(=O)O)NC(=O)[C@H](CCCCN)NC(=O)[C@@H](NC(=O)[C@H](CCCCN)NC(=O)[C@H](CC(N)=O)NC(=O)[C@H](CCCNC(=N)N)NC(=O)[C@H](Cc1ccccc1)NC(=O)[C@H](CCCCN)NC(=O)[C@H](CCCNC(=N)N)NC(=O)[C@H](CC(C)C)NC(=O)[C@H](CCCNC(=N)N)NC(=O)[C@H](CCCCN)NC(=O)[C@H](CCCNC(=N)N)NC(=O)[C@H](CC(C)C)NC(=O)[C@@H](N)CC(C)C)[C@@H](C)CC)C(=O)NCC(=O)N[C@@H](CCC(N)=O)C(=O)N[C@@H](CCCCN)C(=O)N[C@H](C(=O)N[C@@H](CCC(N)=O)C(=O)NCC(=O)N[C@@H](Cc1ccccc1)C(=O)N[C@H](C(=O)N1CCC[C@H]1C(=O)N[C@@H](CCCCN)C(=O)N[C@@H](CC(C)C)C(=O)N[C@H](C(=O)N1CCC[C@H]1C(=O)N[C@@H](CCCNC(=N)N)C(=O)N[C@H](C(=O)N[C@@H](CCC(=O)O)C(=O)N[C@@H](CO)C(=O)O)[C@@H](C)O)C(C)C)C(C)C)[C@@H](C)CC, the lethal concentration was 3.21 µM (Stenotrophomonas maltophilia; inhibition zone; CGMCC 1.179; LB agar, overnight).
With c1ccc(CN2CCNCCN(Cc3ccccc3)CCNCC2)cc1 the IC50 was 10.5 µM (Leishmania donovani; parasite growth, resazurin; 72 h, promastigote).
CC(C)C[C@H](NC(=O)[C@H](Cc1ccc(O)cc1)NC(=O)[C@@H]1CCCN1C(=O)[C@H](CCCNC(=N)N)NC(=O)[C@@H]1CCCN1C(=O)[C@H](CCCCN)NC(=O)[C@H](CC(=O)O)NC(=O)[C@@H]1CCCN1C(=O)[C@H](CCCNC(=N)N)NC(=O)C1(N)CCCCC1)C(=O)N1CCC[C@H]1C(=O)N[C@@H](CCCNC(=N)N)C(=O)N1CCC[C@H]1C(=O)N[C@@H](CCCNC(=N)N)C(=O)N1CCC[C@H]1C(=O)N1CCC[C@H]1C(=O)N[C@@H](CCCNC(=N)N)C(=O)N1CCC[C@H]1C(=O)N[C@H](C(=O)N[C@@H](CCCNC(=N)N)C(=O)N[C@@H](CSc1c(F)c(F)c(SC[C@H](NC(=O)[C@H](CCCNC(=N)N)NC(=O)[C@@H](NC(=O)[C@@H]2CCCN2C(=O)[C@H](CCCNC(=N)N)NC(=O)[C@@H]2CCCN2C(=O)[C@@H]2CCCN2C(=O)[C@H](CCCNC(=N)N)NC(=O)[C@@H]2CCCN2C(=O)[C@H](CCCNC(=N)N)NC(=O)[C@@H]2CCCN2C(=O)[C@H](CC(C)C)NC(=O)[C@H](Cc2ccc(O)cc2)NC(=O)[C@@H]2CCCN2C(=O)[C@H](CCCNC(=N)N)NC(=O)[C@@H]2CCCN2C(=O)[C@H](CCCCN)NC(=O)[C@H](CC(=O)O)NC(=O)[C@@H]2CCCN2C(=O)[C@H](CCCNC(=N)N)NC(=O)C2(N)CCCCC2)C(C)C)C(=O)NN)c(F)c1F)C(=O)NN)C(C)C: “reduction in viable count” 2.38 log CFU/mL (Acinetobacter baumannii; time-kill; 4 × MIC, 60 min).
The IC90 of CC(=O)[O-].F[P-](F)(F)(F)(F)F.[Ni+2].c1ccc(CN2CCN3CCN(CC2)CCN(Cc2ccccc2)CC3)cc1 is reported as greater than 20 µM (Leishmania donovani; parasite growth, resazurin; 72 h, amastigote).
CN[C@@H]1[C@H](O)[C@H](NC)[C@H]2O[C@]3(O)[C@H](O[C@@H]2[C@H]1O)O[C@H](C)C[C@@]3(O)CNCc1ccccc1 — result for “inhibition zone diameter”: 16 to 21.5 mm (Neisseria meningitidis; ATCC 13077; 40 µg per disc).

Some of these lines once more:
CCCN1CCNC1=[S+][Ag-3]([O][N+](=O)[O-])([P+](c1ccccc1)(c1ccccc1)c1ccccc1)[P+](c1ccccc1)(c1ccccc1)c1ccccc1 — result for “inhibition zone diameter”: 13 mm (Shigella flexneri; MTCC 1457, DMSO; 0.1 mL of 50 mg/mL in 8 mm well, 18 to 24 h).
